Experimental data pooled from the literature.
Protocols differ between the studies behind these lines. Several values in a cell are separate wells, animals, samples, runs or records. ± gives the spread as reported. Converted amounts (≈) assume the structure as drawn.

`CCOC(=O)C1(Cc2cc(OC)cc(OC)c2)Oc2cc(F)ccc2N(Cc2cc(OC)cc(OC)c2)C1=O` (stereo not shown) has an inhibition of 53.1 ± 2.76% (Echinochloa crus-galli; fresh weight, greenhouse postemergence; postemergence, 150 g ai/ha, 21 days).
`CCCCSC(SCCCC)c1ccc(OCCNS(=O)(=O)c2c(F)cccc2F)c(OC)c1` gave an EC50 of greater than 2500 µg/mL (Tobacco mosaic virus; virus inactivation; plant in vivo).
`CCOC(=O)C1(Cc2ccccc2)Oc2cc(OC)ccc2N(Cc2ccccc2)C1=O` (stereo not shown) gave an inhibition of 57.3 ± 2.34% (Eclipta prostrata; fresh weight, greenhouse postemergence; postemergence, 150 g ai/ha, 21 days).
The EC50 of `CCCCSC(SCCCC)c1ccc(OCCNS(=O)(=O)c2ccc(F)cc2)c(OC)c1` is reported as 329.5 ± 1.5 µg/mL (≈ 639 µM) (tobacco mosaic virus; curative activity; in vivo plant).
`COc1ccc(Cn2c3cc(=O)n(Cc4cccc(Cl)n4)c(C)c3c(=O)n2-c2ccccn2)cc1`: “normalized viral replication” 0 (human respiratory syncytial virus; recombinant reporter virus; concentration not given, scale 0 to 100, together with: adenosine 0.4 µM).
`Cc1ccc(N2CC3CC(C2)N3C)cc1C(=O)NC1(c2ccc3c4c(cccc24)C(=O)N3C)CC1` gave an inhibition of 97.1% (Human coronavirus NL63; viral replication; 10 µM).
`CCOC(=O)C1(Cc2cc(F)cc(F)c2)Oc2cc(F)ccc2N(Cc2cc(F)cc(F)c2)C1=O` (stereo not shown) has an inhibition of 58.2 ± 1.54% (Echinochloa crus-galli; fresh weight, greenhouse postemergence; postemergence, 150 g ai/ha, 21 days).
With `CCCSC(SCCC)c1ccc(OCCNS(=O)(=O)c2cccc(Br)c2)c(Cl)c1` the EC50 was 307.7 ± 2.7 µg/mL (≈ 556 µM) (Tobacco mosaic virus; protective activity; plant in vivo).
For `C[N+]1=C2C(c3ccc(Cl)cc3)=[N+]([O-])c3ccccc3N2CCC1`, the MIC90 was 8 µg/mL (Parabacteroides distasonis and Bacteroides spp.; bacterial growth).
`CCCSC(SCCC)c1ccc(OCCNS(=O)(=O)c2ccc(Br)cc2)c(Cl)c1` has an EC50 of 495.3 ± 1.8 µg/mL (≈ 896 µM) (Tobacco mosaic virus; inactivation activity; plant in vivo).
`Cc1cc(C(=O)Nc2nc3cccc(C)c3n2[C@H]2CCCCN(C(=O)/C=C/CN(C)C)C2)ccn1` gave a survival of 124% and 127% and 140% and 105% (Trypanosoma brucei brucei; 2T1 CLK1 overexpressing; 0.0098 µM, compound pretreated; baseline: maximum).
The MIC50 of `C[N+]1=C2C(c3ccccc3)=[N+]([O-])c3ccccc3N2CCC1` is reported as 4 µg/mL (Prevotella spp.; bacterial growth).
With `CCSC(SCC)c1ccc(OCCNS(=O)(=O)c2ccc(C)cc2)cc1` the EC50 was 155.1 ± 1.3 µg/mL (≈ 364 µM) (Tobacco mosaic virus; protective activity; plant in vivo).
For `[O-][N+]1=C(Cc2ccccc2)C2=NCCCN2c2ccccc21`, the MIC90 was 4 µg/mL (≈ 13.7 µM) (Prevotella spp.; bacterial growth).
`CN[C@H](CC(C)C)C(=O)N[C@H]1C(=O)N[C@@H](CC(N)=O)C(=O)N[C@H]2C(=N)N[C@H]3C(=O)N[C@H](C(=O)N[C@H](C(=O)O)c4cc(O)cc(O)c4-c4cc3ccc4O)[C@H](O)c3ccc(c(Cl)c3)Oc3cc2cc(c3O)Oc2ccc(cc2Cl)[C@H]1O` has an accumulation increase of 14 fold (Enterococcus faecium; ATCC BAA-2317 VanA; 30 µg/mL; baseline: no antibiotic).
`CCCN1C(=O)C(CCC)(C(=O)OCC)Oc2cc(F)ccc21` (stereo not shown) has an inhibition of 56.6 ± 3.7% (Echinochloa crus-galli; fresh weight, greenhouse postemergence; postemergence, 150 g ai/ha, 21 days).
`COc1ccc(C2=[N+]([O-])c3ccccc3N3CC(C)(C)CN=C23)cc1` has an MIC90 of 0.5 µg/mL (≈ 1.49 µM) (Parabacteroides distasonis and Bacteroides spp.; bacterial growth).
`CCOC(=O)C1(Cc2ccccc2C#N)Oc2cc(F)ccc2N(Cc2ccccc2C#N)C1=O` (stereo not shown) has an inhibition of 58.4 ± 2.19% (Echinochloa crus-galli; fresh weight, greenhouse postemergence; postemergence, 150 g ai/ha, 21 days).
With `Cc1cc(N2CCC(C#N)(C3(C)CC3)C2=O)cc(C(=O)NCc2cc(F)cc(-c3cnn(C)c3)c2)n1` (racemic) the IC50 was 60 nM (Plasmodium falciparum; parasite growth; compound-resistant Dd2-B2 bulk 1_Bulk_10e5_D1).
`C[C@H](NC(=O)[C@@H](O)c1cc(F)cc(F)c1)C(=O)N[C@@H]1C(=O)N(C)c2ccccc2-c2ccccc21`: “lowest effective concentration” 3 nM (dengue virus type 2; viral protein expression, immunoblot, measured: NS4B and NS1; Huh-7.5.1; 48 h).
With `CCCCCCCCCCCCCC(=O)N[C@H]1C(=O)N[C@@H](CN)C(=O)N[C@@H](CO)C(=O)N[C@@H](Cc2ccc(O)cc2)C(=O)O[C@H]1C` the MIC was 2 µg/mL (Staphylococcus aureus; SH1000; together with: phosphatidylethanolamine, molar ratio 1).
`COC(=O)C1=CO[C@@H](C)[C@@H]2Cn3ccc4c5ccccc5nc-4c3C[C@H]12` has a resistance index of 0.8 (Plasmodium falciparum; C2B, atovaquone-resistant; 96 h; baseline: C2B over 3D7).
`CN(C(=O)c1ccn2ncc(-c3ccc(C(N)=O)cc3)c2c1)c1ccc(C#N)cn1` — result for “faecal Nluc luminescence”: 7330 a.u. and 899 a.u. and 717 a.u. and 195 a.u. and 236000 a.u. (Cryptosporidium parvum; UGA1 Nluc, IFN-gamma knockout C57BL/6 mice, faeces; oral, 10 mg/kg daily, 336 h post infection, treatment days 11-17; higher means more parasites).
With `[O-][N+]1=C(c2ccccc2)C2=NCCN2c2ccccc21` the MIC90 was no more than 0.06 µg/mL (Parabacteroides distasonis and Bacteroides spp.; bacterial growth).
`CC[C@H](C)[C@H](NC(=O)[C@H](C)NC(=O)CNC(=O)[C@H](C)NC(=O)[C@H](CCCCN)NC(=O)[C@H](CO)NC(=O)[C@H](C)NC(=O)[C@H](CCSC)NC(=O)CN)C(=O)N[C@@H](C)C(=O)NCC(=O)N[C@@H](CCCCN)C(=O)N[C@H](C(=O)N[C@@H](C)C(=O)N[C@@H](CCCCN)C(=O)N[C@H](C(=O)N[C@@H](C)C(=O)N[C@@H](CC(C)C)C(=O)N[C@@H](CCCCN)C(=O)N[C@@H](C)C(=O)N[C@@H](CC(C)C)C(N)=O)C(C)C)[C@@H](C)CC` has a combination index of 0.84 (Escherichia coli; 3538 ampicillin resistant; Loewe additivity, together with: ampicillin).
With `CCOC(=O)C1(Cc2cc(F)c(F)c(F)c2)Oc2cc(F)ccc2N(Cc2cc(F)c(F)c(F)c2)C1=O` (stereo not shown) the inhibition was 61.3 ± 3.17% (Eclipta prostrata; fresh weight, greenhouse postemergence; postemergence, 150 g ai/ha, 21 days).
`CC(O)CN(CC(C)O)CC(C)O.O=C(O)C(Cl)Cl` (stereo not shown) gave a herbicidal inhibition of 0% (Eleusine indica; 15 mg/mL, 21 days, pre-emergence, greenhouse).
`CCOC(=O)C1(CC#N)Oc2cc(F)ccc2N(CC#N)C1=O` (stereo not shown) gave an inhibition of 40 ± 1.49% (Echinochloa crus-galli; fresh weight, greenhouse postemergence; postemergence, 150 g ai/ha, 21 days).
The EC50 of `CCSC(SCC)c1ccc(OCCNS(=O)(=O)c2ccc(C)cc2)c(OC)c1` is reported as 177 ± 2.3 µg/mL (≈ 388 µM) (Tobacco mosaic virus; protective activity; plant in vivo).
`CC(O)CN.O=C(O)C(Cl)Cl` gave a herbicidal inhibition of 44% (Eleusine indica; 15 mg/mL, 21 days, post-emergence, greenhouse).
Under “mRNA fold change”, `FC(F)(F)c1cccc(CNc2nc(NC3CCN(Cc4ccccc4)CC3)c3nc[nH]c3n2)c1` is recorded as 2.62 (Cryptococcus neoformans; RNA-seq, measured: CNAG_02001; 48 µg/mL, 3 h; baseline: untreated).
`CCCSC(SCCC)c1ccc(OCCNS(=O)(=O)c2ccc(Cl)cc2)c(OC)c1` gave an EC50 of 464 ± 4.8 µg/mL (≈ 920 µM) (Tobacco mosaic virus; curative activity; plant in vivo).
The parasite number of `CCc1nn(C)c2nc(-c3ccc(C(=O)O)cc3)nc(NCc3ccccc3)c12` is reported as 101% and 109% and 96.8% and 93.3% (Cryptosporidium parvum; HCT-8; 9 x EC90, 0 h; baseline: DMSO control).
`C[N+]1=C2C(c3ccc([N+](=O)[O-])cc3)=[N+]([O-])c3ccccc3N2CCC1` gave an MIC90 of 1 µg/mL (Parabacteroides distasonis and Bacteroides spp.; bacterial growth).
For `Cc1cc(Cl)cc(S(C)=NC#N)c1NC(=O)c1cc(Br)nn1-c1ncccc1Cl` (stereo not shown), the mortality was 100% (Spodoptera litura; leaf-dip; third instar larvae; 12.5 ppm, 72 h).
`CC[C@H](C)CCCCC(=O)N[C@@H](CCN)C(=O)N[C@H](C(=O)N[C@@H](CCN)C(=O)N[C@H]1CCNC(=O)[C@H]([C@@H](C)O)NC(=O)[C@H](CCN)NC(=O)[C@H](CCN)NC(=O)[C@H](CC(C)C)NC(=O)[C@@H](CC(C)C)NC(=O)[C@H](CCN)NC1=O)[C@@H](C)O`: “MIC fold change” 5.26 (Escherichia coli; daily serial passaging; ATCC 8739; highest sub-MIC, 45 days; baseline: initial MIC).
With `COc1cc(C(SC(C)C)SC(C)C)ccc1OCCNS(=O)(=O)c1cccc(Br)c1` the EC50 was greater than 2500 µg/mL (tobacco mosaic virus; curative activity; in vivo plant).

For quick reference, copied from above:
`CN(C(=O)c1ccn2ncc(-c3ccc(C(N)=O)cc3)c2c1)c1ccc(C#N)cn1` — result for “faecal Nluc luminescence”: 7330 a.u. and 899 a.u. and 717 a.u. and 195 a.u. and 236000 a.u. (Cryptosporidium parvum; UGA1 Nluc, IFN-gamma knockout C57BL/6 mice, faeces; oral, 10 mg/kg daily, 336 h post infection, treatment days 11-17; higher means more parasites).
With `[O-][N+]1=C(c2ccccc2)C2=NCCN2c2ccccc21` the MIC90 was no more than 0.06 µg/mL (Parabacteroides distasonis and Bacteroides spp.; bacterial growth).
`CC[C@H](C)[C@H](NC(=O)[C@H](C)NC(=O)CNC(=O)[C@H](C)NC(=O)[C@H](CCCCN)NC(=O)[C@H](CO)NC(=O)[C@H](C)NC(=O)[C@H](CCSC)NC(=O)CN)C(=O)N[C@@H](C)C(=O)NCC(=O)N[C@@H](CCCCN)C(=O)N[C@H](C(=O)N[C@@H](C)C(=O)N[C@@H](CCCCN)C(=O)N[C@H](C(=O)N[C@@H](C)C(=O)N[C@@H](CC(C)C)C(=O)N[C@@H](CCCCN)C(=O)N[C@@H](C)C(=O)N[C@@H](CC(C)C)C(N)=O)C(C)C)[C@@H](C)CC` has a combination index of 0.84 (Escherichia coli; 3538 ampicillin resistant; Loewe additivity, together with: ampicillin).
With `CCOC(=O)C1(Cc2cc(F)c(F)c(F)c2)Oc2cc(F)ccc2N(Cc2cc(F)c(F)c(F)c2)C1=O` (stereo not shown) the inhibition was 61.3 ± 3.17% (Eclipta prostrata; fresh weight, greenhouse postemergence; postemergence, 150 g ai/ha, 21 days).
`CC(O)CN(CC(C)O)CC(C)O.O=C(O)C(Cl)Cl` (stereo not shown) gave a herbicidal inhibition of 0% (Eleusine indica; 15 mg/mL, 21 days, pre-emergence, greenhouse).
`CCOC(=O)C1(CC#N)Oc2cc(F)ccc2N(CC#N)C1=O` (stereo not shown) gave an inhibition of 40 ± 1.49% (Echinochloa crus-galli; fresh weight, greenhouse postemergence; postemergence, 150 g ai/ha, 21 days).
